Measured values from different studies.
Numbered parts are unrelated; each lists some results of a single study.

Series 1 — technique: RNA Bind-n-Seq; form: RNA; sample: in vitro; concentration: 200 nM; notes: whole 134-nt RNA, ends assumed; with: 150 mM KCl; relative to: input library; reading: higher = stronger binding
Target: Ras GTPase-activating protein-binding protein 1, full length (G3BP1, Homo sapiens, UniProt Q13283)
UniProt Q13283, sequence (whole entry, looked up): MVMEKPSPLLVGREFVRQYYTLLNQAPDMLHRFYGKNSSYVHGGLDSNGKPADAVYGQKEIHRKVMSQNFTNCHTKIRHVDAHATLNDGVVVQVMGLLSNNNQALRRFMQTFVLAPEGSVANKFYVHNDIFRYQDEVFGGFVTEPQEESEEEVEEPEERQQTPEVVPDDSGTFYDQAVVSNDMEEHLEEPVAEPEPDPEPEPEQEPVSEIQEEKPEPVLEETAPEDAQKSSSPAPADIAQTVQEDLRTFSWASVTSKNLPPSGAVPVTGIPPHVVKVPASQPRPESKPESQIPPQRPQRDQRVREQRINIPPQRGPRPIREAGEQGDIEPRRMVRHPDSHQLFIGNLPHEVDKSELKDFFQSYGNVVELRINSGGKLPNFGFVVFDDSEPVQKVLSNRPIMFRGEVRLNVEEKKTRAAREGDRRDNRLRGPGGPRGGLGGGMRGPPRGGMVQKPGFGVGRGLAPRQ
Oligonucleotide	log2 enrichment
GGGAGUUCUACAGUCCGACGAUCACCAUGCAGGUGGGCAUCUUAGGGAAGUGGGGCAAGGGGGGGAUAGGGAGGGGGGUAACACUUUGGGAACAGGUGGUCCCAGGUCGUUUCUGGAAUUCUCGGGUGUCAAGG	1.39
GGGAGUUCUACAGUCCGACGAUCCUCAAGUCCUGUGCUACACAUCGUAUGUACCGAAUCGGGGCCGGCCGGCCGGGAAAGUAUUAUGUUACGCCGUUCGGAUCUGCACUUCCAUGGAAUUCUCGGGUGUCAAGG	-0.0116
GGGAGUUCUACAGUCCGACGAUCUAACUUUAGAGGAGGAUCUGAUGGAUAUGGCAGUGGACGUGGAUUUGGGGAAGGCUAUAAUGGGUAUGGAGGAGGACCUGGAGGUGGCAAUGGAAUUCUCGGGUGUCAAGG	0.231

Series 2 — technique: protein-binding microarray; form: double-stranded DNA, one strand shown; sample: in vitro; concentration: 250 nM; notes: 60-bp whole probe; with: salmon DNA 0.4 mg/ml; relative to: random background probes; reading: higher = stronger binding; constant ends, left off below: GCCTAGCAC … GTCTTGATTCGCTTGACGCTGCTG
Target: Interferon regulatory factor 5, full length, phosphomimetic (IRF5, Homo sapiens, UniProt Q13568-2, residues 1-514, K96S/S451D/S453D/S456D/S462D)
Oligonucleotide	log fluorescence
AGAGCTATCACTATTCTAGGGTGCTAG	1.5 z-score
GACGGGTTCCTTCTCCTGACGTGCTAG	-0.0886 z-score
TTAGATATCGGGTTGCGATTAGTGCTA	2.59 z-score
GACGAACTGAGTTTCGAGAGGTGCTAG	4.41 z-score
GACTGTTTCGACTATCGGGACGTGCTA	7.03 z-score
TTTTTTTTGGAATGTCTTCCCGTGCTA	0.692 z-score

Series 3 — technique: competition protein-binding microarray; form: double-stranded DNA, one strand shown; sample: in vitro; concentration: 2 µM; with: Cbf1 competitor, 0.05 µM; reading: higher = stronger binding
Target: Phosphate system positive regulatory protein PHO4, full length, GST-tagged (PHO4, Saccharomyces cerevisiae, UniProt P07270, residues 1-312)
Notes: whole 60-bp probe, lowest competitor level
Construct (chain): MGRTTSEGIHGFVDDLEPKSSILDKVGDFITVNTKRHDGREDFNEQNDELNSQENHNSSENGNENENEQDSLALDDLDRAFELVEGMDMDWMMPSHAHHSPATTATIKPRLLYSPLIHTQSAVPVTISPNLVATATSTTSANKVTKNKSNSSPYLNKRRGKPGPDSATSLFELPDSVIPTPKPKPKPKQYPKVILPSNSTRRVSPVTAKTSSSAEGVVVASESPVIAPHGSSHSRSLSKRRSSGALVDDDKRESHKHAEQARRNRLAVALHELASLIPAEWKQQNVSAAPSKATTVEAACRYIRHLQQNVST
Oligonucleotide	fluorescence intensity [a.u.]
CGTTATTGATATCGGCACGCAATGGTACTGGGGCAAGTCTTGATTCGCTTGACGCTGCTG	7550
CTTTCCCGATCTTGTCACGGCACTTTAGCACATTTGGTCTTGATTCGCTTGACGCTGCTG	4870
AAATTACTAAGTTGCGACGTGGGTGACGCCGTATGAGTCTTGATTCGCTTGACGCTGCTG	6270
GATTTGTTGTGTAATAGCGTGATGGGCACTTGAATGGTCTTGATTCGCTTGACGCTGCTG	5880

Further values, each from its own experiment
Molecule	target	test	system	setting	how to read	endpoint	result
PhoQ, residues 284 288 289 292 302 303 NLSRDF	PhoP, residues 12 14 15 18 19 SQCLL (Escherichia coli, UniProt P23836)	Sort-seq, refers to: YFP reporter	E. coli	PhoQ-PhoP variant library, with: 10 µM Mg2+	relative to: high Mg2+ state, higher = stronger signaling	fold induction	9.71
